Results gathered from unrelated publications.
Compare with care: the assays were run in different laboratories. Numbers after ± are the reported error.

CNCc1ccc(-c2[nH]c3cc(F)cc4c3c2CCNC4=O)cc1  neutropenia incidence (human patients; oral, 360 mg twice daily, all grades): 12.5%
CC(C)(C)c1ccc(O)c(CN(Cc2cc(C(C)(C)C)ccc2O)C2CCC(NC(N)=O)CC2)c1 (stereo not shown)  recovery (human liver microsomes; 2000 ng/mL, 3 months, 4 °C, refrigerator storage): 99.33 ± 0.25%
CCCOc1ccc([C@H]2CNC(=O)N2c2ccc3[nH]cnc3c2)cc1  AUC(0-12h) (human volunteers fed, plasma; oral tablet, 200 mg single dose, crossover, geometric mean): 2190 ng·h/mL
CC[C@H](C)[C@H](NC(C)=O)C(=O)N[C@H]1CSSC[C@@H](C(=O)N[C@H](C(N)=O)[C@@H](C)O)NC(=O)[C@H](CCCNC(=N)N)NC(=O)[C@H](Cc2c[nH]cn2)NC(=O)[C@H](C)NC(=O)CNC(=O)[C@H](Cc2c[nH]c3ccccc23)NC(=O)[C@H](CC(=O)O)NC(=O)[C@H](CCC(N)=O)NC(=O)[C@H](Cc2cn(C)c3ccccc23)NC(=O)[C@H](C(C)C)NC1=O  retention factor (isocratic RP-HPLC, C18; 32% acetonitrile, phosphate pH 7.4, 1% TFA; 25 °C): 1.832 ± 0.007
O=C1NCCc2nc(OCc3cccc(F)c3)ccc21  Irwin test score (item: Miosis; Sprague-Dawley rat male; oral, 100 mg/kg, 30 min; direction not given): 0
COc1cc2c3c(n(CCCN4CCOCC4)c(=O)c2cc1OC)-c1cc2c(cc1C3=O)OCO2  Vz (beagle dog, male, plasma; intravenous infusion, 50 mg/m^2, 1 h infusion, vehicle 1): 348 ± 105 L/m²
CCN1/C(=C/C(C)=O)Sc2ccc(F)cc21  mean blood pressure change (cynomolgus monkey; oral, 10 mg/kg, 2 h post-dose; reference: pre-dose): 104 ± 5.7%
C=CC[C@@H]1/C=C(\C)C[C@H](C)C[C@H](OC)[C@H]2O[C@@](O)(C(=O)C(=O)N3CCCC[C@H]3C(=O)O[C@H](/C(C)=C/[C@@H]3CC[C@@H](O)[C@H](OC)C3)[C@H](C)[C@@H](O)CC1=O)[C@H](C)C[C@@H]2OC  plasma urea level (Wistar Kyoto rat, male, plasma; ip, 0.5 mg/kg/day, day 18): 6.2 ± 0.8 mmol/L
CCc1cc(C(=O)NC)c2nccc(N3CCc4c(cc(Cn5ccnc5)cc4-c4cn(C)nc4C(F)(F)F)C3=O)c2c1  serum MCH change (Sprague Dawley rats; oral, 100 mg/kg once daily, 7 days; reference: vehicle): 2.03%
Nc1cc(C(Cl)=C(Cl)Cl)c(S(N)(=O)=O)cc1S(N)(=O)=O  inhibition (THP-1; pyroptotic LDH release; 2 µM, 40 min, added: LPS then nigericin): 19%
O=C(O)CCC(=O)O.[2H]C([2H])([2H])Oc1cc(C)c2[nH]ccc2c1CN1CC[C@@H](C2CC2)C[C@H]1c1ccc(C(=O)O)cc1  subjects with proteinuria TEAE (multiple ascending dose; healthy Chinese subjects; 50 mg twice daily): 0%
C=CC(=O)Nc1cc(Nc2nccc(-c3cn(C)c4ccccc34)n2)c(OC)cc1N(C)CCN(C)C  recovery (storage stability; human dried blood spots; 5 h, on ice, high QC level): 97.9%
COc1nnc2ccc(N3CCC(c4ccc(OCCN5CCN(C)C(=O)[C@H]5C)cc4)CC3)nn12  median time to platelet nadir (human, blood; oral, 30 mg once daily): 6 weeks
Cc1ccc(Sc2ccccc2N2CCNCC2)c(C)c1  participants with TEAE (item: haemoglobin decreased; healthy adult men; oral, 5 mg daily, 12 days): 0%
CCn1c(=O)c(-c2cc(NC(=O)Nc3ccccc3)c(F)cc2Br)cc2cnc(NC)cc21  participants with drug-related TEAE (item: gastrointestinal disorders; healthy human, matched to mild hepatic impairment; oral, 50 mg single dose): 12.5%
CCCC[C@H]1CC[C@H](c2ccc(C#N)cc2)CC1  fetal accumulation (Sprague-Dawley rat, female, fetus; 5000 ng/mL in perfusate, 50 (unit not given), high dose, mixture of 21 LCMs): 1.53 ± 1.35 ng/g
CCCCC[C@H](O)CC[C@@H]1[C@H]2Cc3cccc(OCC(=O)O)c3C[C@H]2C[C@H]1O  geometric mean AUC(0-last) (LC-MS/MS; Japanese PAH patients, plasma; inhaled, 54 µg, no background PAH therapy): 0.41 ng·h/mL
OC[C@H]1O[C@H](O[C@]2(CCl)O[C@H](CCl)[C@@H](O)[C@@H]2O)[C@H](O)[C@@H](O)[C@H]1Cl  inhibition (THP-1; pyroptotic LDH release; 2 µM, 40 min, added: LPS then nigericin): 30.7%
CCO[C@H]1CCN(Cc2c(OC)cc(C)c3[nH]ccc23)[C@H](c2ccc(C(=O)O)cc2)C1  total AUC(0-t) (human severe hepatic impairment, plasma; oral, 200 mg single dose, geometric mean): 57700 ng·h/mL

A few entries again:
CCCOc1ccc([C@H]2CNC(=O)N2c2ccc3[nH]cnc3c2)cc1  AUC(0-12h) (human volunteers fed, plasma; oral tablet, 200 mg single dose, crossover, geometric mean): 2190 ng·h/mL
COc1cc2c3c(n(CCCN4CCOCC4)c(=O)c2cc1OC)-c1cc2c(cc1C3=O)OCO2  Vz (beagle dog, male, plasma; intravenous infusion, 50 mg/m^2, 1 h infusion, vehicle 1): 348 ± 105 L/m²
CCn1c(=O)c(-c2cc(NC(=O)Nc3ccccc3)c(F)cc2Br)cc2cnc(NC)cc21  participants with drug-related TEAE (item: gastrointestinal disorders; healthy human, matched to mild hepatic impairment; oral, 50 mg single dose): 12.5%
